{"data": "Results gathered from unrelated publications", "note": "Parts stem from different laboratories: compare values within a part only. Numbers after ± are the reported error.", "UniProt O14733, sequence (whole entry, looked up)": "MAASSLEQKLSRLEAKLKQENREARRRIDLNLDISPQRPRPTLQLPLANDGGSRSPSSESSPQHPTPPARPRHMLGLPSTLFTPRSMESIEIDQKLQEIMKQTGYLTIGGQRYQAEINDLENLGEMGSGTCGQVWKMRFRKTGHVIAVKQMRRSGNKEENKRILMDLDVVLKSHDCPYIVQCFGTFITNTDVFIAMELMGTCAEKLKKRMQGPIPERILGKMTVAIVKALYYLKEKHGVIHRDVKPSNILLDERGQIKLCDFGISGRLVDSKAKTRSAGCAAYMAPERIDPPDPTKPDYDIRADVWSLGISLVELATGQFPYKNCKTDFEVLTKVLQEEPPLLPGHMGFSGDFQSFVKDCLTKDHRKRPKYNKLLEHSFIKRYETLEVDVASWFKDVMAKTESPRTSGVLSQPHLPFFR", "UniProt P42681, sequence (whole entry, looked up)": "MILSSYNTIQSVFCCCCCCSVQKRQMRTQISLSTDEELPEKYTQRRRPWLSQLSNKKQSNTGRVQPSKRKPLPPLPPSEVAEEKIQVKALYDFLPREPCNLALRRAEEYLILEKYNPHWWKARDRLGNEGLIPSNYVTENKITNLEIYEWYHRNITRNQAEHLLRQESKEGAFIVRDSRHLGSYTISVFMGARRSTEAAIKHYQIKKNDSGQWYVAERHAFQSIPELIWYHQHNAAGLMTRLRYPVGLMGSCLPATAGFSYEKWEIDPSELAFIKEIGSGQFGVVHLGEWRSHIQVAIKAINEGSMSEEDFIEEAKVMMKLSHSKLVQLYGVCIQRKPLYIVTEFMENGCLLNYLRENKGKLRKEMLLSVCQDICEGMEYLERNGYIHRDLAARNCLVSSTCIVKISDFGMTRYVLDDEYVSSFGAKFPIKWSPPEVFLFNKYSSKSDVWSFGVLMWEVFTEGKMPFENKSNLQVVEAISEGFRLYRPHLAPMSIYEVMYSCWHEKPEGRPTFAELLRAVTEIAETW", "UniProt P42680, sequence (whole entry, looked up)": "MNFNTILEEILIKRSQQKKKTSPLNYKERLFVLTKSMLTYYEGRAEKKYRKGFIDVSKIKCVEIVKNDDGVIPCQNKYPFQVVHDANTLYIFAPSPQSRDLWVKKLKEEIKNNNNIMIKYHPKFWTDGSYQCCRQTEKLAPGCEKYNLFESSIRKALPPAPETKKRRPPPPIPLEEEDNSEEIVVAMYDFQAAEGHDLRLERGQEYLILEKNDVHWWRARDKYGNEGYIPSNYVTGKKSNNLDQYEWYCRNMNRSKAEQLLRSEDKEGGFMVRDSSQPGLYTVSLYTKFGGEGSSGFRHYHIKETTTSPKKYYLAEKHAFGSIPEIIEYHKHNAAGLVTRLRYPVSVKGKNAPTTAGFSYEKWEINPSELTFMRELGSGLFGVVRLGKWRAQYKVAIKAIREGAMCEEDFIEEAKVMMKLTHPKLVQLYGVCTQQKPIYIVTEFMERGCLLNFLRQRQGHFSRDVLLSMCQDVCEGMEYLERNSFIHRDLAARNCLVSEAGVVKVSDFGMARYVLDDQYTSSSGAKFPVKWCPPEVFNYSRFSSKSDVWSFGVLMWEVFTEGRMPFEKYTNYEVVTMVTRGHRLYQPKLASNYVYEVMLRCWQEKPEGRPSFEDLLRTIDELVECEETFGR", "UniProt P52333, sequence (whole entry, looked up)": "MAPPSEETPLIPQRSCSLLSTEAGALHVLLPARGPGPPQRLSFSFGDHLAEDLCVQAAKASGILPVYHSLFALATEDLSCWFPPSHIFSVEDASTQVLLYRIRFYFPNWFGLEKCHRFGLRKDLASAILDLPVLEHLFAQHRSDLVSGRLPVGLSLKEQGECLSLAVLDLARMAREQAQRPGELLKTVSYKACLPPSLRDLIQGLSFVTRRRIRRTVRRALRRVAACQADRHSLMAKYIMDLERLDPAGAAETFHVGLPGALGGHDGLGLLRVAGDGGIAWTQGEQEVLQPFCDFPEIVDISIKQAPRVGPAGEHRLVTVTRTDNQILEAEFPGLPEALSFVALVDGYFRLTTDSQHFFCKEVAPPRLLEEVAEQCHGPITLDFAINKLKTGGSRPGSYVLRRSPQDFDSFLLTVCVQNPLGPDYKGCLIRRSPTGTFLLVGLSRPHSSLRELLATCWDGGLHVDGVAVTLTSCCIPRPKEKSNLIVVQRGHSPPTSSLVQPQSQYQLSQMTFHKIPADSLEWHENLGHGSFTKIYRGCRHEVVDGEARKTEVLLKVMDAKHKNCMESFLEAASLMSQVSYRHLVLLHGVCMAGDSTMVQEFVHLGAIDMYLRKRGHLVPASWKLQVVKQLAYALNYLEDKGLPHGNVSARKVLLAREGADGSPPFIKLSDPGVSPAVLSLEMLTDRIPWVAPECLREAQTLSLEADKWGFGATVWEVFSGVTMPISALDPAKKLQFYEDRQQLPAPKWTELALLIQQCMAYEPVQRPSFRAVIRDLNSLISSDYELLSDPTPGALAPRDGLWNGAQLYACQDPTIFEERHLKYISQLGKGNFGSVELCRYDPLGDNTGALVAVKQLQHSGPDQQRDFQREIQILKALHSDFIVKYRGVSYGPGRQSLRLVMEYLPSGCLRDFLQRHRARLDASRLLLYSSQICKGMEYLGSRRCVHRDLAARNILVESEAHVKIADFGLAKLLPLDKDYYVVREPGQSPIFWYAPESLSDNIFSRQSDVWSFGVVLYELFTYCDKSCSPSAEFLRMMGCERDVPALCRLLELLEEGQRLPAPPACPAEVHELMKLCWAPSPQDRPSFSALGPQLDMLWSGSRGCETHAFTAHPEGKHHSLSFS"}
{"data": "Set 1", "Structure (SMILES)": "C[C@@H]1CN(c2ccc(-c3cc(C(=O)NCCOCCOCCOCCOCCOCCOCCNC(=O)/C=C/c4[nH]cc(C(=O)N[C@@H](CC(N)=O)c5ccc(F)c(Cl)c5)c4-c4ccc(Cl)cc4F)ccc3F)cc2NC(=O)c2ccc(F)cc2C(F)(F)F)C[C@H](C)N1C", "effect on": "thermal unfolding", "method": "differential scanning fluorimetry", "concentration": "5.5 µM", "reading": "higher = more unfolded", "DCAF1": "DDB1- and CUL4-associated factor 1 (DCAF1, Homo sapiens, UniProt Q9Y4B6)", "WDR5": "WD repeat-containing protein 5 (WDR5, Homo sapiens, UniProt P61964)", "UniProt Q9Y4B6, sequence (whole entry, looked up)": "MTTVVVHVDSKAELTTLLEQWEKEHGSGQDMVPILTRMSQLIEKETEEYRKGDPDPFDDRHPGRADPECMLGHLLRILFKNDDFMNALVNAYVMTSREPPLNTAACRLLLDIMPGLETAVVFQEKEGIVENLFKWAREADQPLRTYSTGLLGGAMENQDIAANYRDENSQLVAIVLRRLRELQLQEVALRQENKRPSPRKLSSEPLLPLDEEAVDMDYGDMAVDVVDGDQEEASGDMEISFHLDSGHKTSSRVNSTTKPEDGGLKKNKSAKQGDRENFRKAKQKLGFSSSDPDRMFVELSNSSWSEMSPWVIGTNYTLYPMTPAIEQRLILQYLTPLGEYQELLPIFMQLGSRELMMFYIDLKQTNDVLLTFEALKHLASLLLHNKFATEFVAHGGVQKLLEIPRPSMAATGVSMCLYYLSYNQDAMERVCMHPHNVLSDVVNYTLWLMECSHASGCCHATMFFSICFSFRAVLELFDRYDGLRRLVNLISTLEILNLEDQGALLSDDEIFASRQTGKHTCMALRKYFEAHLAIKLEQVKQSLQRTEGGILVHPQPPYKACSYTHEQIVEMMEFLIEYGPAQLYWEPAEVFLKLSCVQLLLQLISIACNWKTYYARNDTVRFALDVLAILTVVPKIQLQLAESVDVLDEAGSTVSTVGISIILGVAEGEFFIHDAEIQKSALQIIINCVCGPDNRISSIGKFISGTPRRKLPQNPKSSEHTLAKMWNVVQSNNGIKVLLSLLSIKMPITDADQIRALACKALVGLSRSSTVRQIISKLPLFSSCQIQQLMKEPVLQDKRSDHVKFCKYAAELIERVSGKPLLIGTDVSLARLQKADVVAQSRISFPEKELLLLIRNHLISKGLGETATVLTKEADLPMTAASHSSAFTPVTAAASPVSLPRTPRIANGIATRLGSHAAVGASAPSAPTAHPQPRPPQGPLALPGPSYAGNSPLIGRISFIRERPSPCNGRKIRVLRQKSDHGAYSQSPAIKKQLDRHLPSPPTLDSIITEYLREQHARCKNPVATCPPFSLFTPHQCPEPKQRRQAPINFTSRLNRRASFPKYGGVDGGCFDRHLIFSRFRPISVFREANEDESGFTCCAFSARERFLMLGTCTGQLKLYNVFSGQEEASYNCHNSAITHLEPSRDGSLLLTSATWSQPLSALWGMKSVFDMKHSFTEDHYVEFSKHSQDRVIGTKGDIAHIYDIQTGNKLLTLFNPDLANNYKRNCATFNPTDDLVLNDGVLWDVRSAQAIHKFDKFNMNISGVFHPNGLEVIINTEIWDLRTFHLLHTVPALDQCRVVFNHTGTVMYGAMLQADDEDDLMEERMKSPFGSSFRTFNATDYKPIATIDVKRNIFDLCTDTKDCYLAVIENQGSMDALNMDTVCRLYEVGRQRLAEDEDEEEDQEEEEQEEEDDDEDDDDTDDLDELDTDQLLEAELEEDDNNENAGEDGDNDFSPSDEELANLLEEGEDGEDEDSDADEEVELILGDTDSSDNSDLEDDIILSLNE"}
{"target": "DCAF1", "setting": "32.4 °C", "SYPRO Orange fluorescence [a.u.]": 9100}
{"target": "DCAF1", "setting": "78.61 °C", "SYPRO Orange fluorescence [a.u.]": 40900}
{"target": "WDR5", "setting": "52.2 °C", "SYPRO Orange fluorescence [a.u.]": 16600}
{"target": "DCAF1", "setting": "81.01 °C", "SYPRO Orange fluorescence [a.u.]": 39300}
{"target": "WDR5", "setting": "59.21 °C", "SYPRO Orange fluorescence [a.u.]": 15600}
{"target": "WDR5", "setting": "27.2 °C", "SYPRO Orange fluorescence [a.u.]": 13400}
{"target": "WDR5", "setting": "81.01 °C", "SYPRO Orange fluorescence [a.u.]": 65700}
{"target": "WDR5", "setting": "61.21 °C", "SYPRO Orange fluorescence [a.u.]": 15100}
{"target": "WDR5", "setting": "72.61 °C", "SYPRO Orange fluorescence [a.u.]": 38200}
{"target": "WDR5", "setting": "73.21 °C", "SYPRO Orange fluorescence [a.u.]": 40800}
{"target": "DCAF1", "setting": "75.21 °C", "SYPRO Orange fluorescence [a.u.]": 43600}
{"data": "Set 2", "Structure (SMILES)": "CN(C1COC1)C(C)(C)/C=C(\\C#N)C(=O)N1CCC[C@H]1Cn1nc(-c2ccc(Oc3ccccc3)cc2F)c2c(N)ncnc21", "effect on": "enzyme activity", "BTK": "Tyrosine-protein kinase BTK (BTK, Homo sapiens, UniProt Q06187)", "UniProt Q06187, sequence (whole entry, looked up)": "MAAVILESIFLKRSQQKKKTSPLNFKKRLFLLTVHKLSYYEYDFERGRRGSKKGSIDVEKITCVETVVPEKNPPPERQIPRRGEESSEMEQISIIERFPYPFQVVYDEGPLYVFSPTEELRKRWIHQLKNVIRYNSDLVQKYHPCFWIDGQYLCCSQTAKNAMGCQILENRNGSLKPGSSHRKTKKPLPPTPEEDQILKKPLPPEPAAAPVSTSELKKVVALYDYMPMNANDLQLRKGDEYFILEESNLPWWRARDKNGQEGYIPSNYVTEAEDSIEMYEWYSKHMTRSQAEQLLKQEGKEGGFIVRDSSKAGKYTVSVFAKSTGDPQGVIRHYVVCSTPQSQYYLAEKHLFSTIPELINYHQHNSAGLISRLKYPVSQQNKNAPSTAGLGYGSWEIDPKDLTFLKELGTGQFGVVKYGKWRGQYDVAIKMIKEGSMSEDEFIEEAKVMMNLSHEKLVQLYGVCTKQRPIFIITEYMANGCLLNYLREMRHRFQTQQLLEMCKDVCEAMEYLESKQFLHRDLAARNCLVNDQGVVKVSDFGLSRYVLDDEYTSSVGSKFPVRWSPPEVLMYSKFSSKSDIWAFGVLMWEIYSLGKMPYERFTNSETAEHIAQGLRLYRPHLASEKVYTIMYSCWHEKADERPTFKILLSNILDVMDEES"}
{"target": "BTK", "setting": "preincubation 180 min", "IC50 [nM]": "1 ± 0.2"}
{"target": "TEC (Homo sapiens, UniProt P42680)", "test": "inhibitor", "IC50 [nM]": 3.4}
{"target": "TXK (Homo sapiens, UniProt P42681)", "test": "inhibitor", "IC50 [nM]": 41}
{"target": "BTK", "setting": "no preincubation", "IC50 [nM]": "3.3 ± 0.8"}
{"target": "MAP2K7 (Homo sapiens, UniProt O14733)", "test": "inhibitor", "IC50 [nM]": "> 5000"}
{"target": "JAK3 (Homo sapiens, UniProt P52333)", "test": "inhibitor", "IC50 [nM]": "> 5000"}
{"data": "Set 3", "SMILES": "CCN1CCN(Cc2ccc(COc3c(-c4c(C)c(F)cc5[nH]ncc45)c(C4CC4)cc4c(N5C[C@@H]6C[C@H]5CN6)nc(OC5CCOCC5)nc34)cc2)C(=O)C1"}
{"cell line": "A-375", "test": "cell growth or viability, ATP luminescence", "IC50 [nM]": "> 1000"}
{"cell line": "AsPC-1", "test": "cell viability, CellTiter-Glo", "IC50 [nM]": 230}
{"cell line": "AsPC-1 KRAS G12D", "test": "ERK1/2 phosphorylation, inhibitor, In-Cell ELISA", "setting": "2 h", "IC50 [nM]": 37.5}
{"cell line": "AsPC-1 (KRAS G12D)", "test": "ERK1/2 phosphorylation, inhibitor, In-Cell ELISA", "setting": "24 h", "IC50 [nM]": 986}
{"cell line": "A-375 KRAS wild type", "test": "ERK1/2 phosphorylation, inhibitor, In-Cell ELISA", "setting": "2 h", "IC50 [nM]": "> 10000"}
{"cell line": "AsPC-1 KRAS G12D", "test": "ERK1/2 phosphorylation, inhibitor, In-Cell ELISA", "setting": "24 h, single experiment", "IC50 [nM]": 726}
{"data": "Set 4", "SMILES": "CCN1/C(=C/C=C2\\CCCC(/C=C/C3=[N+](CC)c4ccccc4C3(C)C)=C2NCCCCCCCCN2CCC(Nc3nc4ccccc4n3Cc3ccc(F)cc3)CC2)C(C)(C)c2ccccc21", "cell line": "U-87 MG", "concentration": "concentration not given", "baseline": "DMSO"}
{"test": "item: SNX18 mRNA", "log2 fold change": -0.855}
{"test": "item: AFF4 mRNA", "log2 fold change": 0.815}
{"test": "item: SFXN5 mRNA", "log2 fold change": -1.04}
{"test": "item: PODXL mRNA", "log2 fold change": -0.983}
{"test": "item: FPR1 mRNA", "log2 fold change": -2.25}
{"test": "item: LAMB3 mRNA", "log2 fold change": -1}
{"test": "item: SRFBP1 mRNA", "log2 fold change": 0.978}
{"test": "item: TRIP6 mRNA", "log2 fold change": -1.25}
{"test": "item: PBK mRNA", "log2 fold change": -1.99}
{"test": "item: MDFIC mRNA", "log2 fold change": -0.838}
{"test": "item: PPP1R2 mRNA", "log2 fold change": 0.92}
{"test": "item: JRK", "log2 fold change": -1.64}
{"test": "item: NECTIN1 mRNA", "log2 fold change": -0.989}
{"test": "item: SLC9A7 mRNA", "log2 fold change": -1.22}
{"test": "item: CAMK2A mRNA", "log2 fold change": -3.73}
{"note": "For quick reference, copied from above (set 1):"}
{"target": "DCAF1", "setting": "32.4 °C", "SYPRO Orange fluorescence [a.u.]": 9100}
{"target": "DCAF1", "setting": "75.21 °C", "SYPRO Orange fluorescence [a.u.]": 43600}
{"target": "DCAF1", "setting": "81.01 °C", "SYPRO Orange fluorescence [a.u.]": 39300}
{"target": "WDR5", "setting": "72.61 °C", "SYPRO Orange fluorescence [a.u.]": 38200}
{"target": "WDR5", "setting": "59.21 °C", "SYPRO Orange fluorescence [a.u.]": 15600}
